# Experimental data of several laboratories.
# Compare with care: the assays were run in different laboratories. Values joined by “and” are separate records of one study, mostly repeats; a detail may differ. ± marks the error that the study gave.
# PRKCB isoform beta-II: Protein kinase C beta type, isoform beta-II (PRKCB, Homo sapiens, UniProt P05771)
# DRD3: D(3) dopamine receptor (DRD3, Homo sapiens, UniProt P35462)
# KCNQ3/KCNQ2: Voltage-gated potassium channel, KQT; KCNQ2(Kv7.2)/KCNQ3(Kv7.3) (KCNQ3/KCNQ2, Homo sapiens, UniProt O43525+O43526)
# Genome polyprotein NS3 helicase domain: Genome polyprotein, NS3 helicase domain (Hepatitis C virus genotype 1b, UniProt Q9WMX2)
# Glutamate receptor 2: Glutamate receptor 2 (Homo sapiens, UniProt P42262)
SMILES,target,test,system,conditions,scale,inhibition
[2H]c1cc(C)c(NC(=O)c2cnc(Nc3cc(N4CCCCC4)nc(C)n3)s2)c(Cl)c1,"Tyrosine-protein kinase Fyn (FYN, Homo sapiens, UniProt P06241)",,,0.01 µM,,> 90%
COc1cc2ncnc(Nc3ccc(Oc4ccccc4)c(C)c3C)c2cc1OC,PRKCB isoform beta-II,"kinase activity, inhibitor",,1 µM,,10%
O=C(NO)c1ccc(CN2CCCCc3ccccc32)c(F)c1,sigma-1 receptor,radioligand binding,,10 µM,,50.4%
O=C1c2ccccc2CCN1CCCCN1CCN(c2cccc(Cl)c2Cl)CC1,DRD3,radioligand binding,,"concentration not given, added: [3H]N-methylspiperone",,99.7%
O=C1NC(=O)C(c2ccccc2)(c2ccccc2)N1,KCNQ3/KCNQ2,"ion current, antagonist, SyncroPatch patch clamp",HEK293,10 µM,,0%
CC(C)=CC1NCCc2cc(O)c(O)cc21 (stereo not shown),tyrosinase,"enzyme activity, inhibitor",,"100 µM, added: levodopa",,12.9 ± 2.51%
Cc1cc(OC(C)C)ccc1C(=O)C(C)(C)NC(=O)c1sccc1C,"succinate-cytochrome c oxidoreductase (complex II-III), Solanum tuberosum",,"cv Norin No. 1, mitochondrial fraction",concentration not given,,no inhibition
COc1ccc(/C=C2\COc3ccc(C)cc3C2=O)cc1O,Genome polyprotein NS3 helicase domain,"DNA binding, inhibitor",hepatitis C virus,"100 µM, added: Cy5-dT15 DNA",,1%
C[C@H]1C(=O)/C(=C/c2ccccc2)[C@H]2C[C@@H]1N(Cc1ccccc1)C[C@@]2(C)O,"Kappa-type opioid receptor (OPRK1, Cavia porcellus, UniProt P41144)","binding, radioligand binding",guinea pig brain,"1 µM, added: [3H]U-69,593",,0%
Cn1cc(-n2cnc3c(NCc4nc5cc(Cl)c(Cl)cc5[nH]4)nc(N4CCOCC4)nc32)cn1,"Cyclin-dependent kinase 12, with cyclin K (CDK12, Homo sapiens, UniProt Q9NYV4)","kinase activity, inhibitor, ADP-Glo",,0.0027 µM,,8%
CC[C@@H]1[C@H](F)C(=O)N[C@@H]1COc1nccc2cc(C(N)=O)c(OC)cc12,"Serine/threonine-protein kinase TAO2 (TAOK2, Homo sapiens, UniProt Q9UL54)","ATP probe binding, KiNativ profiling, item: Lys2 probe site",THP-1 cell lysate,0.04 mM,,2%
O=C(O)CNC(=O)C(CS)Cc1ccccc1 (racemic),Genome polyprotein NS3 helicase domain,"DNA binding, inhibitor",hepatitis C virus,"100 µM, added: Cy5-dT15 DNA",,0%
CCCCCCCCCCC1NCCc2cc(O)c(O)cc21 (stereo not shown),tyrosinase,"enzyme activity, inhibitor",,"100 µM, added: levodopa",,-0.37 ± 0.57%
OCCCN1CC[C@@H]2C[C@H]1c1cc(-c3ccc(C(F)(F)F)cc3)ccc12,DRD3,"radioligand binding, PDSP competition binding",,10 µM,,< 50%
Cc1ccc(C(=O)Nc2ccc3ccccc3c2)o1,"Acid-sensing ion channel 1 (Asic1, Rattus norvegicus, UniProt P55926)","ion current, inhibitor, whole-cell patch clamp",,10 µM,,2.38% and 0.7% and 9.1% and 3.48% and 10%
Cc1ccc(OC[C@@H]2CN(CCN3CCc4ccccc43)CCO2)cn1,DRD3,radioligand binding,,"concentration not given, added: [3H]N-methylspiperone",,34.5%
Nc1c(Br)cc(Br)cc1CN[C@H]1CC[C@H](O)CC1,KCNQ3/KCNQ2,"ion current, antagonist, SyncroPatch patch clamp",HEK293,10 µM,,11%
COc1cccc(C2NCCc3cc(O)c(O)cc32)c1O (stereo not shown),tyrosinase,"enzyme activity, inhibitor",,"100 µM, added: levodopa",,35.4 ± 0.72%
CN(C(=O)n1cnc(-c2ccc[n+]([O-])c2)c1)C1CCCCC1,"Leukotriene B4 receptor 1 (LTB4R, Homo sapiens, UniProt Q15722)",,,10 µM,,-2.66%
O=c1cc([C@@H](CO)NCc2c[nH]c3c(O)nc(O)nc23)o[nH]1,"Hypoxanthine-guanine-xanthine phosphoribosyltransferase (Plasmodium falciparum, UniProt P20035)","enzyme activity, inhibitor, coupled IMPDH",,up to 100 µM,,inactive
Cn1c(=O)c2[nH]cnc2n(C)c1=O,Glutamate receptor 2,"ion current, negative allosteric modulator, SyncroPatch patch clamp",HEK293,3 µM,,-1%
Cc1nc(Nc2ncc(C(=O)Nc3c(C)cccc3Cl)s2)cc(N2CCN(CCO)CC2)n1,"Insulin-like receptor (daf-2, Caenorhabditis elegans, UniProt Q968Y9)","inhibitor, radiometric phosphocellulose",,"10 µM, added: ATP 0.2 mM",,~50%
CC(C)OC(=O)C(C)(C)Oc1ccc(C(=O)c2ccc(Cl)cc2)cc1,Genome polyprotein NS3 helicase domain,"DNA binding, inhibitor",hepatitis C virus,"100 µM, added: Cy5-dT15 DNA",,0%
CC(C)NCC(O)COc1cccc2ccccc12 (stereo not shown),KCNQ3/KCNQ2,"ion current, antagonist, SyncroPatch patch clamp",HEK293,10 µM,,25%
CC(=O)SCC[N+](C)(C)C.[Cl-],Genome polyprotein NS3 helicase domain,"DNA binding, inhibitor",hepatitis C virus,"100 µM, added: Cy5-dT15 DNA",,0%
Cc1cc(-c2ccnc3[nH]cc(F)c23)cc(F)c1[C@@]1(O)[C@H](C)CN(C(=O)CN)C[C@@H]1C,CDK11 and CDK8,"ATP probe binding, KiNativ, item: Lys2 site",HEK293T cell lysate,10 µM,,64.5%
COc1cc(C(=O)NS(=O)(=O)c2ccccc2C)ccc1Cc1cn(C)c2ccc(NC(=O)OC3CCCC3)cc12,"LRRC8A/LRRC8C (Homo sapiens, UniProt Q8IWT6+Q8TDW0, Y124F/Y126F)","ion current, whole-cell patch clamp",HCT LRRC8-/- cells,"100 µM, +100 mV, Y124F/Y126F heteromers",,81.8% and 79.2% and 87.2% and 90.1%
Oc1cccc(Nc2nc(-c3ccc(F)cc3F)cs2)c1,"Melatonin receptor type 1B (MTNR1B, Homo sapiens, UniProt P49286)",,,10 µM,,15.9%
O=C(CN1CCO[C@H](COc2ccccc2)C1)N1CCc2ccccc21,DRD3,radioligand binding,,"concentration not given, added: [3H]N-methylspiperone",,17.5%
CC(=O)O[C@H]1C[C@@H]2CC[C@@H]3[C@H](CC[C@@]4(C)[C@H]3C[C@H]([N+]3(C)CCCCC3)[C@@H]4OC(C)=O)[C@@]2(C)C[C@@H]1[N+]1(C)CCCCC1,Genome polyprotein NS3 helicase domain,"DNA binding, inhibitor",hepatitis C virus,"100 µM, added: Cy5-dT15 DNA",,1%
COc1cccc(OC[C@@H]2CN(CC(=O)N3CCc4ccccc43)CCO2)c1,DRD3,radioligand binding,,"concentration not given, added: [3H]N-methylspiperone",,15%
CC/C(=N\NC(=O)NCc1cccc(O)c1)c1ccc(O)c(C)c1O,"Protein kinase C beta type, isoform beta-I (PRKCB, Homo sapiens, UniProt P05771)",kinase activity,,0.1 µM,,7.9%
CNc1cc(Oc2cc(C(=O)Nc3cc(N4CCN(C)CC4)cc(C(F)(F)F)c3)ccc2C)ncn1,"Serine/threonine-protein kinase Nek7 (NEK7, Homo sapiens, UniProt Q8TDX7)",kinase activity,,1 µM,,-14.1%
COc1ccc(S(=O)(=O)ON=C2C=C(C)C(=O)C(C)=C2)cc1,"Histone deacetylase 1 (HDAC1, Homo sapiens, UniProt Q13547)","enzyme activity, inhibitor",,concentration not given,,no inhibition
CN1CCN(c2cc(-c3ccncc3)c(-c3ccc4ccccc4c3)nn2)CC1,"Endothelin receptor type B (EDNRB, Homo sapiens, UniProt P24530)","antagonist, FLIPR",,10 µM,,-1.4%
Cc1cc(-c2ccnc3[nH]cc(F)c23)cc(F)c1[C@@]1(O)[C@H](C)CN(C2CCS(=O)(=O)CC2)C[C@@H]1C,CDK11 and CDK8,"ATP probe binding, KiNativ, item: Lys2 site",HEK293T cell lysate,10 µM,,91.1%
O=C(CN1CCO[C@@H](COc2ccccn2)C1)N1CCc2ccccc21,DRD3,radioligand binding,,"concentration not given, added: [3H]N-methylspiperone",,4.5%
CCCN1C[C@H](CSC)C[C@@H]2c3cccc4[nH]cc(c34)C[C@H]21,Glutamate receptor 2,"ion current, negative allosteric modulator, SyncroPatch patch clamp",HEK293,30 µM,,1%
CCN(CC)c1ccc(C2Nc3ccc(C(=O)c4ccccc4)cc3NC3=C2C(=O)CC(C)(C)C3)cc1 (stereo not shown),sigma 1 receptor,binding,,10 µM,,6%
O=C(O)CCc1ccc(NCc2cccc(Oc3ccccc3)c2)cc1,Genome polyprotein NS3 helicase domain,"DNA binding, inhibitor",hepatitis C virus,"100 µM, added: Cy5-dT15 DNA",,0%
Clc1cccc(OC[C@H]2CN(CCN3CCc4ccccc43)CCO2)c1,DRD3,radioligand binding,,"concentration not given, added: [3H]N-methylspiperone",,40.4%
CC12CC3CC(C)(C1)CC(N)(C3)C2,Glutamate receptor 2,"ion current, negative allosteric modulator, SyncroPatch patch clamp",HEK293,3 µM,,15%
Oc1c2ccccc2c2c3c(cccc13)N=N2,Genome polyprotein NS3 helicase domain,"DNA binding, inhibitor",hepatitis C virus,"100 µM, added: Cy5-dT15 DNA",,1%
Cc1nc2sccn2c(=O)c1CCN1CCC(=C(c2ccc(F)cc2)c2ccc(F)cc2)CC1,"Diacylglycerol kinase alpha (Rattus norvegicus, UniProt P51556)","kinase activity, inhibitor",HEK293T cell lysate,50 µM,relative to: DMSO,~63%
CNCc1ccc(-c2cc(-c3nc(-c4ccc(S(=O)(=O)C(C)C)cc4)cnc3N)on2)cc1,PRKCB isoform beta-II,enzyme activity,,"0.4 µM, added: ATP at Km",,5%
O=c1ccc2c(OCCCCc3ccccc3)c3ccoc3cc2o1,Genome polyprotein NS3 helicase domain,"DNA binding, inhibitor",hepatitis C virus,"100 µM, added: Cy5-dT15 DNA",,0%
